Measured values pooled from the literature.
Every numbered part comes from another study and shows a few of its results, in no order.

Block 1 — method: RNA Bind-n-Seq; form: RNA; medium: in vitro; concentration: 365 nM; baseline: no-protein control; direction: higher = stronger binding
Target: RNA binding protein fox-1 homolog 2, RRM domain, GST-SBP tag (RBFOX2, Homo sapiens, UniProt O43251-10, residues 100-194)
Setting: natural RNA segment, single round, ends assumed
Shared flanks, not repeated: GGGAGUUCUACAGUCCGACGAUC … UGGAAUUCUCGGGUGCCAA
Construct (chain): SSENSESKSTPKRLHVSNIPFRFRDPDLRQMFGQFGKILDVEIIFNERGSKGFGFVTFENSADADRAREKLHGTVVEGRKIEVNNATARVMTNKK
Sequence | RBNS enrichment (R)
UUCCCGAGAGCAGCAGACAUGGAGGGCCAGACUUUAAAAGCAACGCAAGCAGAUUCGAAGAGCUGUUGCCCUCUUCUAAAAAAGGCUUUUGGAGGCUGUGUUACAUGCAU | 1.85
AAGAGUUGAUGGAGACCCAGGGAUUGGACACCAUCUCCCAACCCCAGUACUCCUGCUCUCCGGUGCCACCUCACCUUCUUUGGCUUCUUCCCUCUUGCCUCCUUCUGUUC | 0.844
AGACUUACAUGCCAUCUUCUGAGUAAAGAGUUUGAGGUUUUAAUUUAAAGGCAAUGUACAGCUAUACUUUUUUAUAUGCUCUUCCAGUCAGUUAAAUUAUGGCCUACACU | 0.299
UGGCCUCAGCUGAUCCAUGCUGUCUGACUCCCGGGGAGAGUUAGGAAGAUGCAAGGACCUCUCCUCAAGAGACUGUUGCCUGCCUGAAGCUUCUGUUCAGGCUCAUGCCA | 0.965
CAAGAGAGAAGAACUAAAGAAGUUCUUUUUAUUCCUCGUUACCAAAUAAAUCAUUUCUCUCUUUACCAUGCAGUGUUACUUUUUCUCCCCCGGGCUGCUGGUCUGAUGAG | 0.752
AGUCAGGGCAGGGCUCCAGGGGAUAACAGGUGUCCUGCUUCUCCUUUGGCAAUGCAAAAUGACUCCUGACUGUUCCAAAUACUGAAAAGAAGUCUGCCUCUGAGUUACAG | 0.241
CUUCCAUAUAUGCUUCUAAGUAUCCUACCUCUUUGAAGAAAAGAUAGGGAUGGAGUGAGGUGACAGUGGGAAGGGACACAACUACAUGGCCUUUCAUGACCCUGGCUUAC | 0.241
AAAGCUUCCGUAGUGCAUUGGUAUGGAUUAAAUGCAUAAAAUAUUCUUAGACUCGAUGCUGUAUAAAAUAUUAUGGGAAAAAAAGAAAAUACGUUAUUUUGCCUCUAAAC | 1.49
ACUCAAUGUCUUAGGUCAGGAGUUGUGUCUAGGCUGGAAGAGCCAAAGAAUAUUCCAUUUUCCUUUCCUUGUGGUUGAAAACCACAGUCAGUGGAGAGAUGUUUGGAAAC | 0.364
GUGGCCACUGAAGUCUCAGGUGCAGAUGGGUUCUCCCGGGAACCCAGGGUUGGAUCCAUAAGGCUUUAAUCUGGCCCUGAAAGCAGUGUUGCCGCUUCAGACAGUACUGC | 0.252
UGGUUUUACACCCACCCCCUGGGCAGGGAGUUUGCACGUAGUUGUGAGCUGUGAGUGGUUAGUGCAUUGCUGGUAUUGCUGAAGGCAGGGUUGAUCCCUCACUUGACUGA | 1.1
GCUUGGCCUGCAACAUGGGAGGCUUGGGACGGGGGUCUUGGACCUGCUCAUGACCCCUGAGCAGCCUGCAAUGAGGUGUGUGUGCCCAGCCACUUGGCUGGGCAGGGAGA | 0.523

Block 2 — method: universal PBM; form: double-stranded DNA, one strand shown; medium: in vitro; concentration: not given; direction: higher = stronger binding
Target: Sal-like protein 4, full length isoform B (SALL4, Homo sapiens, UniProt Q9UJQ4-2, residues 1-616)
Setting: 8-mer, flanks averaged, mean of replicates
Construct (chain): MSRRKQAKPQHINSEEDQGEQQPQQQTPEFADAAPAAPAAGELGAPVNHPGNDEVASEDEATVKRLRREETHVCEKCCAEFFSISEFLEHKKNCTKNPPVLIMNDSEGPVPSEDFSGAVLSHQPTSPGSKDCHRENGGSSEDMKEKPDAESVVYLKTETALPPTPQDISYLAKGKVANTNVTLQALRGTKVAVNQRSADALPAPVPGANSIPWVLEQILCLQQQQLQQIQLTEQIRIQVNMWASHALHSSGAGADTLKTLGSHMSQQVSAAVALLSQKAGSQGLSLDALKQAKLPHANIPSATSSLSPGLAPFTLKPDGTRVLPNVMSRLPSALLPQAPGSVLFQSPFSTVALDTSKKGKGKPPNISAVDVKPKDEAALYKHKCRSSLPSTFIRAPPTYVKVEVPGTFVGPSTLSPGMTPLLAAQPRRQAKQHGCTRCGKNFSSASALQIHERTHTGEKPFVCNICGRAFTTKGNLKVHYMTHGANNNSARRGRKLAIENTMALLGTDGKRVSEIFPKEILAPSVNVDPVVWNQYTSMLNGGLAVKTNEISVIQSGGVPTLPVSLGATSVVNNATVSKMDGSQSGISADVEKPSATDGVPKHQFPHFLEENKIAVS
Sequence | E-score
CACATCAC | -0.0172
GCCGCTAA | -0.179
CCAGTGGA | -0.348
CTCACCTC | -0.319
GGTAAGAA | -0.0993
GGGGCTGA | -0.167
CCGGGCTC | -0.381
CTTCTGAC | 0.0636
AAGAGACT | -0.0113
AGCTTATA | 0.298
TCGTTTCA | 0.0917
GCGCGACC | -0.292
TAGTACCA | 0.00044
CTTCCGCA | -0.171
AGTTCGTA | -0.058
CCAGAGCA | -0.129

Block 3 — method: RNA Bind-n-Seq; form: RNA; medium: in vitro; concentration: not given; baseline: input RNA pool; direction: higher = stronger binding
Target: RING finger protein unkempt homolog, zinc fingers 1-6, GST-SBP tag (UNK, Homo sapiens, UniProt Q9C0B0, residues 30-357)
Setting: RNA with constant flanks, human and mouse sites, ends assumed
Shared flanks, not repeated: GGGAGUUCUACAGUCCGACGAUC … CAACAGAGGAUUGAGCAUCA
Residues (chain): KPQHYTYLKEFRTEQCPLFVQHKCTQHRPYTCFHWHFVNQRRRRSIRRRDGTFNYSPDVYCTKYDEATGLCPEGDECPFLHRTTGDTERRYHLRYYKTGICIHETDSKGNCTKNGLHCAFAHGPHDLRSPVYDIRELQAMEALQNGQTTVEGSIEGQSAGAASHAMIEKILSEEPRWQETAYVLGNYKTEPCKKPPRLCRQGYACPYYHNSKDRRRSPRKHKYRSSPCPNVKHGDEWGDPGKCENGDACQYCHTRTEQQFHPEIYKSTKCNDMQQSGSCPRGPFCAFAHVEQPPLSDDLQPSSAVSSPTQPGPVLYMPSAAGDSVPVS
Sequence | bound/input enrichment [ratio]
UUAAUGUUUAAGUUCAAAUUAAUGUAGAGCCCUCCCUCUUUUGGGGGGUAAACUUUUUAAAUUAGGACUUACAGGAGAUCAAGAAGGAACUUUCAAAGACGGGUGAGGAGAAGUACAUAG | 0.822
AUGGCUCACAAUCCUAAUAUGACCCAUUUGAAGAUUAAUCUGCCAGUUACUGCCCUUCCUCCCCUUUGGGUAAGAUGUGACAGUUCAGAUCCUGAAGGUACUUGUUGGCUAGGAGCUGAG | 0.181
UUAAUAGGCUUAAUAAUUGUUGGCAAAGAUCCUUUUGCUUUUUUCGGCAUGCAAGCUCCUAGCAUCUGGCAGUGGGGCCAAGAAAAUAAGGUUUAUGCAUGUAUGAUGGUUUUCUUCCUG | 1.18
GGCUGGGAAACUUCAAAGCCUUCCCAGUCCCCAGCACCUGCCUUUCUCACUACUUCUCUGGAGAUGGUAGGAGAGUUUCCUAGGUCUUUCCAGGGCAGCAUGUGAUUCAUUUGGGGAUGG | 0.0914
GAGAAGAAGCAGCAACUUCUUAGAGCGGCAACAGGAAAGGCCAUUUUAAAUGGAAUAGAUAGCAUUAACAAAGUGCUAGAACAUUUUCGGCGAAAAGGUAUAAACCAGCAUGUUCAAAAU | 0.249
UCUGACAUUUCUACUCUUGGACACCUGGUAAUAACCACUCAGGGAGGAUAUGUAAAAAUACUAGAUCUUUCAAACUUUGAAAUUUUGGCCAAAGUGGAGCCUCCCAAAAAGGAGGGCACU | 0.36
GCUAGCCAGUCUGGAGCAACAUUCUUCAGCAUCUCUGCUUCAUCGUUGACUUCUAAGUGGGUAGGUGAGGGAGAAAAAAUGGUCCGUGCACUGUUUGCUGUUGCCAGGUGUCAGCAGCCA | 0.155
UGUGCAUCUGACGGUCCUGGUCUUUUGCAGUGCGUUUGUGCUGAUGGUUUCCAUGGAUACAAGUGUAUGAGGCAGGGCUCAUUUUCACUGCUUAUGUUCUUUGGGAUUCUGGGAUCCACC | 0.147
GUGAACACAAUGGACCUUGAGAGAGAUGAACCUCUCAAAAGCACCGGCCCUCAGAUUUCUGUUAGUGAAUUUUCUUGCCACUGCUGCUACGACAUCCUGGUUAACCCCACCACCUUGAAC | 0.577
UGAGCUGCCGAAGCCGCCGUCCUGCUCUCCCGCGUGGGCUUCUCUAAUUCCAUUGUUUUUUUUAGAUUCUCUCGGGCCUAGCCGUCCUUGGAACCCGAUAUUCGGGCUGGGCGGUUCCGC | 0.416
UUCAAAAAGAGAAGAACUGAAAAUGGAAAAUCUAGAAAUUUAAGGCAACGAGGUGAUGAUCAAUAGUUGCAGGAGAGCUUUUUGUACAUGCUUUUAGGACAGAAUGGAGACUUAUACACC | 2.66

Block 4 — method: protein binding microarray; form: double-stranded DNA, one strand shown; medium: in vitro; concentration: not given; baseline: not given; direction: higher = stronger binding
Target: Histone acetyltransferase KAT6A, both winged helices, GST fusion (KAT6A, Homo sapiens, UniProt Q92794, residues 1-181)
Setting: 8-mer, flanks averaged, mean of 2 arrays, mostly near background
Target sequence (chain): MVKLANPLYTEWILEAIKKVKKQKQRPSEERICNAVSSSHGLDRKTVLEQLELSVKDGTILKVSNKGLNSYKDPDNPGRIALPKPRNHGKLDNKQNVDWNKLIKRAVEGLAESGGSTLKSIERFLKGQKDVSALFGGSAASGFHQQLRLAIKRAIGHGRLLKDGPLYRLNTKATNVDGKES
Sequence | E-score
AGGCCAAA | -0.189
AGCTTACC | -0.0627
ACAAATAA | -0.0326
TTTCGAAA | -0.0142
CCGCGGCG | 0.395
GGGCATTA | -0.158
ACCGTCCA | 0.127
CAACCGGG | 0.158
ACGCGCTG | 0.245
GAATCCTA | -0.135
AACCACTT | -0.17
AACACTAT | -0.013
AGTACCAG | -0.175
GGGAGGGA | -0.0426
GAATTGGA | -0.062
ATCAAATA | -0.124
AAGTCCTC | -0.21
TGAGTCCA | -0.0759
ACTAGAAA | -0.0214
CCATAGAC | -0.124
CGACATCA | -0.0267
CGTTAAAG | 0.0815
ACAACACA | -0.12
CGACGGAA | 0.311

Block 5 — method: protein-binding microarray; form: double-stranded DNA, one strand shown; medium: in vitro; concentration: 940 nM top; setting: 60-bp whole probe; together with: salmon DNA 0.4 mg/ml; baseline: random background probes; direction: higher = stronger binding; shared flanks, not repeated: GCCTAGCAC … GTCTTGATTCGCTTGACGCTGCTG
Target: Interferon regulatory factor 5, full length, phosphomimetic (IRF5, Homo sapiens, UniProt Q13568-2, residues 1-514, S451D/S453D/S456D/S462D)
Sequence | fitted relative affinity [z-score]
AACGGTTTCCTTCTCCTGACGTGCTAG | 1.89
CACGGTTTCGACTATCGGGACGTGCTA | 7.44
TTAGTTATCAGACTGGATTAGTGCTAG | -0.15
TCATCTTTCTAATTCAAACTGTGCTAG | 1.47
GACGGTATCGGGATTGGGGACGTGCTA | 3.43
GTGTTTTCATTTTATGACAGCGTGCTA | 1.3
TTAGGTATCCTCTTCCTTTAGTGCTAG | 0.643
ACGAGTTTCTATTTTCTGAAGTGCTAG | 4.84
TTAGATTTCAGTTGCGATTAGTGCTAG | 1.53
TCACCCCTCAGATCTGCCACTGTGCTA | 0.0508
TTAGGTCTCGGTCTCGGCTAGTGCTAG | 4.79
ATATATATCCATTATAGATGGTGCTAG | -0.256
TTAGGTATCCTTATCCTATAGTGCTAG | 0.627
TATGGTATGCTCATGACAAAGTGCTAG | -0.382
GACGATATCCTTCTCCTGACGTGCTAG | 0.451
TTAGGTTTCGGACTGGGTAAGTGCTAG | 7.96
TAGGTTTTCTGGTTCCCATTGTGCTAG | 0.992
TTAGGACTGGGACTGGGCTAGTGCTAG | -0.684
TCCATTATTGCTTCCTCTTTGTGCTAG | 1.17

Repeated from above (block 5):
Sequence | fitted relative affinity [z-score]
TCCATTATTGCTTCCTCTTTGTGCTAG | 1.17
TTAGGTCTCGGTCTCGGCTAGTGCTAG | 4.79
GTGTTTTCATTTTATGACAGCGTGCTA | 1.3
GACGGTATCGGGATTGGGGACGTGCTA | 3.43
ATATATATCCATTATAGATGGTGCTAG | -0.256
GACGATATCCTTCTCCTGACGTGCTAG | 0.451
